Measured values of several laboratories.
Compare with care: the assays were run in different laboratories. Numbers after ± are the reported error. Converted amounts (≈) assume the structure as drawn.

Protein sequences, listed by entry. Tags and fused reporters are not part of them.
UniProt Q9P286, whole entry: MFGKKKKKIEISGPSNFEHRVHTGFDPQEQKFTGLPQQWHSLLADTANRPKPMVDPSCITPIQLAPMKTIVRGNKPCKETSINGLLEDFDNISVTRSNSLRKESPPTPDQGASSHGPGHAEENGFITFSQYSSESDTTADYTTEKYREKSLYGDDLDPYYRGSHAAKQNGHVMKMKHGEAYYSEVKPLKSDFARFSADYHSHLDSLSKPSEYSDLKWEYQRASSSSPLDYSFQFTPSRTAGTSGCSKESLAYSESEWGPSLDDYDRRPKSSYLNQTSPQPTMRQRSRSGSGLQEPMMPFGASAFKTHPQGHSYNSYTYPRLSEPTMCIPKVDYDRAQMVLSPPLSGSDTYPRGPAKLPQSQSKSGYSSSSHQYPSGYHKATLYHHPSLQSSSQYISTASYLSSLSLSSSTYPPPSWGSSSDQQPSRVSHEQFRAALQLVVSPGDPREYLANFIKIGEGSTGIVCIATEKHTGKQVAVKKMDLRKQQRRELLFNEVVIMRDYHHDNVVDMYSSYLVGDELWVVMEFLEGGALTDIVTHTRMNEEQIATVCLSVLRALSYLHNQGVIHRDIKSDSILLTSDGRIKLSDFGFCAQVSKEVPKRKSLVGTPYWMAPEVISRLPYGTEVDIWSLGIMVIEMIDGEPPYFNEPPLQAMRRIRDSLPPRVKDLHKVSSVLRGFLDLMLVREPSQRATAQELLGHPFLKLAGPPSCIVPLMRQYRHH

CCN(CC)C(=O)Oc1ccc(C(=O)Nc2cccc3cc[nH]c23)cc1  peak amplitude (NMDA receptor EPSC, inhibitor, whole-cell patch clamp; CA1 interneurons, mouse, hippocampal slices; 10 µM; baseline: control): 59 ± 9.9%
CC#C/C(=N\OC[C@H]1COCCN1)c1ccc2ncnc(Nc3ccc(OCc4cccc(F)c4)c(Cl)c3)c2c1  ED50 (tumour growth; NCI-N87, nude mouse subcutaneous xenograft; oral, 21 days daily): 10.2 mg/kg
CSc1nc(Cl)cc(Sc2nnc(-c3cc(C(F)(F)F)cc(C(F)(F)F)c3)[nH]2)n1  MIC (Escherichia coli; prlD mutants; 37 °C, azide resistant or supersensitive, together with: polymyxin B nonapeptide 25 µg/mL): 0.7 to 3 µg/mL (≈ 1.48 to 6.36 µM)
Cc1ccc(S(=O)(=O)N(C)CC(=O)N(Cc2ccc(C3CCCCC3)cc2)c2ccc(C(=O)O)c(O)c2)cc1  IC50 (HPDEC; cell viability, CyQuant): > 100 µM
O=c1ccc2nc3ccc(OCCCCF)cc3oc-2c1  MIC90 (Mycobacterium tuberculosis; mc2 6206 bedaquiline-resistant MmpL5 regulator mutant; 7 days): 9 µM (≈ 2.59 µg/mL)
CCC(C)C1NC(=O)/C(=C(/C)O)C1=O (stereo not shown)  apoplastic pH change (Arabidopsis thaliana; apo-pHusion imaging; elongating root cells; 10 µM): > 1 pH units
CCCOc1ccc2nc3ccc(=O)cc-3oc2c1  MIC90 (Mycobacterium tuberculosis; mc2 6206 clofazimine-resistant fbiC mutant; 7 days): 7.1 µM (≈ 1.81 µg/mL)
CCN1CCN(Cc2ccc(NC(=O)c3ccc(C)c(/C=C/c4cnc5[nH]ccc5c4OC)c3)cc2C(F)(F)F)CC1  log2 fold change (Serine/threonine-protein kinase PAK 5 (PAK5, Homo sapiens, UniProt Q9P286); inhibitor; 5 µM; baseline: no inhibitor): 0.054
CC[C@H](C)[C@@H]1NC(=O)[C@H](CCC(=O)O)NC(=O)[C@@H]2CCCN2C(=O)[C@H](Cc2c[nH]cn2)NC(=O)[C@H](CC(=O)O)NC(=O)[C@H](Cc2ccc(O)cc2)NC(=O)[C@H](CC(N)=O)NC(=O)[C@@H]2CSSC[C@@H]3NC(=O)CNC(=O)CNC(=O)CNC(=O)[C@H](C)NC(=O)[C@H](C)NC(=O)CNC(=O)CNC(=O)[C@H](CSSC[C@H](NC3=O)C(=O)N[C@@H](CO)C(=O)N[C@@H](CC(=O)O)C(=O)N3CCC[C@H]3C(=O)N[C@@H](CCCNC(=N)N)C(=O)N2)NC1=O  inhibition (Cav2.3c human Y1761F; Ba2+ current; 200 nM): 0.37 ± 0.3%
Nc1ccc2nc3ccc(=O)cc-3oc2c1  MIC90 (Mycobacterium tuberculosis; mc2 6206 bedaquiline-resistant MmpL5 regulator mutant; 7 days): 3.6 µM (≈ 0.764 µg/mL)
CCCCCCC1c2ccc(O)cc2Oc2cc(O)ccc21  MIC (Klebsiella spp.; together with: polymyxin B nonapeptide 25 µg/mL): 7.5 µg/mL (≈ 25.1 µM)
CC(C)Cc1nnc2c(C(=O)NC3c4ccccc4-c4ccccc43)cccn12  MIC ratio (Escherichia coli; broth microdilution; MB5746 rpoZ Δ24-91 frameshift; baseline: mutant over wild type): > 32
COc1ccc2nc3ccc(=O)cc-3oc2c1  MIC90 (Mycobacterium tuberculosis; mc2 6206 PA-824-resistant ddn mutant; 7 days): 1.4 µM (≈ 0.318 µg/mL)

A few entries again:
Nc1ccc2nc3ccc(=O)cc-3oc2c1  MIC90 (Mycobacterium tuberculosis; mc2 6206 bedaquiline-resistant MmpL5 regulator mutant; 7 days): 3.6 µM (≈ 0.764 µg/mL)
CCN(CC)C(=O)Oc1ccc(C(=O)Nc2cccc3cc[nH]c23)cc1  peak amplitude (NMDA receptor EPSC, inhibitor, whole-cell patch clamp; CA1 interneurons, mouse, hippocampal slices; 10 µM; baseline: control): 59 ± 9.9%
